Assay results collected from several papers.
Lines come from different studies, so protocols differ. ± gives the spread as reported.
Cell line: MCF7

CCCc1cc(O)nc(SCCOC(=O)[C@]2(C)CCC[C@]3(C)c4ccc(C(C)C)cc4CCC23)n1 (some centres unmarked)
apoptotic cells (annexin V-FITC/PI flow cytometry; 10 µM, 48 h): 18.3%

CC/C=C\C/C=C\C/C=C\C/C=C\C/C=C\C/C=C\CCC(=O)Nc1ccn(C2OC(CO)C(O)C2(F)F)c(=O)n1 (centres unmarked)
total growth inhibition concentration: 13.4 µM

CC1=[N+]2N=C(c3ccccc3)[O][Pd-2]2([Cl])[O+]=C2Oc3ccccc3C=C21 (centres unmarked)
selectivity index (cytotoxicity, MTT; 24 h; baseline: WI-38 over MCF7 IC50): 2.94

COc1ccc(-c2nnc(-c3cc(-c4ccccc4)n(-c4ccc(S(N)(=O)=O)cc4)n3)o2)cc1
mRNA level (real-time PCR, item: bax; concentration not given; baseline: untreated cells): 4.13 fold

O=C(O)C=Cc1ccc(C(=C2CCCCC2)c2ccc(O)cc2)cc1
PR mRNA level (antagonist, real-time PCR; 1 µM, with: 1 nM estradiol): no effect

CC1(C)CC2C3=CCC4C5(C)CCC(O)C(C)(CO)C5CCC4(C)C3(C)CC(O)C2(CO)C(O)C1O (centres unmarked)
growth inhibition (CCK-8; up to 80 µM): inactive

FC(F)(F)C1(c2ccc(CN3CCN(C(c4ccccc4)c4ccc(Cl)cc4)CC3)cc2)CCC1 (centres unmarked)
EC50 (72 h): 15000 nM

CC(=NNC(=S)NN=C(C(=NO)c1ccccc1)c1ccccc1)c1ccccc1
relative protein level (Western blot, item: Bcl-2; IC50 concentration, 24 h; baseline: untreated): 0.72 ± 0.07

CN1CCC2(CC1)C/C(=N\NC(=O)Nc1ccccc1)c1ccccc1O2
apoptotic cells (annexin V-FITC/PI; concentration not given, 24 h, Total apoptosis): 36.2%

[Cl][Pd-2]1([Cl])[N+](=Cc2ccc[nH]2)Cc2cccc[n+]21
viability reduction (MTT; 100 µg/mL, 24 h): > 80%

COc1cc2c(=O)c(-c3ccc4c(c3)OCO4)coc2c2c1OC(C)(C)C=C2
apoptotic cells (annexin V/PI flow cytometry; 10 µM, 48 h): 38.8%

CCc1c2c(nc3ccc(O)cc13)-c1cc3c(c(=O)n1C2)COC(=O)[C@@]3(CC)OC(=O)[C@H](N)C(C)C
EC50 (cell viability, MTT; 72 h): 450 nM

CCCCCCCCCCCC1N=C(N)N=C(N)N1c1ccc(Cl)cc1.Cl (racemic)
growth inhibition (concentration not given): ≤ 100%

COc1ccc(NC(=O)CCc2nc3cc(Cl)ccc3[nH]c2=O)cc1
VEGFR-2 level (ELISA; culture medium; IC50, 24 h): 170 pg/mL

N=C(N)NCCC[C@H](NC(=O)[C@H](Cc1c[nH]c2ccccc12)NC(=O)[C@H](CCC(N)=O)NC(=O)[C@H](Cc1c[nH]c2ccccc12)NC(=O)[C@H](CCCNC(=N)N)NC(=O)[C@H](Cc1c[nH]c2ccccc12)NC(=O)[C@H](CCC(N)=O)NC(=O)[C@H](Cc1c[nH]c2ccccc12)NC(=O)[C@@H](N)CCCNC(=N)N)C(N)=O
selectivity ratio (baseline: fibroblast IC50 over MCF7 IC50): > 1.7

CCCCCCCCCCCCCCCC(=O)NCCCC[C@@H](NC(=O)[C@@H](CCCNC(=N)N)NC(=O)[C@@H](CC(N)=O)NC(=O)[C@@H](CC(N)=O)NC(=O)[C@@H](CO)NC(=O)[C@@H](CCCNC(=N)N)NC(=O)[C@@H](CC(C)C)NC(=O)CNC(=O)[C@@H](CC(N)=O)NC(=O)CNC(=O)[C@H](NC(=O)[C@@H](CC(C)C)NC(=O)[C@@H](Cc1ccc(O)cc1)NC(C)=O)C(C)C)C(N)=O
TGI (48 h, 1% FBS): 400 ± 20 nM

COc1cccc2c1C(=O)c1c(O)c3c(c(O)c1C2=O)CC(O)(C(=O)CO)CC3OC1CC(NC(=O)CCC2=C(C)C(=O)C=C(C(C)C)C2=O)C(O)C(C)O1 (centres unmarked)
intracellular ROS level (DCFDA fluorescence; concentration not given, 4 h; baseline: DMSO): increased

CC(=C(c1ccc(Cl)cc1)c1ccc(OCCN2CCCC2)cc1)c1ccc(Cl)cc1
inhibition (cell growth or viability; 10 µM): 65.9%

C[n+]1c(/C=C/c2ccc(N(c3ccccc3)c3ccccc3)cc2)cc(/C=C2\Sc3ccccc3N2CCCN2CCCC2)c2ccccc21
caspase-3 and Bax levels (Western blot; concentration not given, 36 h): increased

CC(=O)N[C@H](CCCNC(=N)N)C(=O)N[C@H](CCCCN)C(=O)N[C@H](Cc1ccc(O)cc1)C(=O)N[C@H](CS)C(N)=O
decrease in EdU-positive cells (concentration not given, 24 h): ~50%

CC(Cc1ccc(Cl)cc1)=C(c1ccc(Cl)cc1)c1ccc(OCCN(C)C)cc1
inhibition (cell growth or viability; 10 µM): 89%

OC(c1cccc(OC(F)(F)F)c1)c1c[nH]c2ncc(C(F)(F)F)cc12 (centres unmarked)
inhibition (cell growth or viability; 10 µM, 72 h): 21%

Cc1cc([C@H](C(=O)N2C[C@H](O)C[C@H]2C(=O)N[C@@H](CC(=O)N2CCC(N3CCC(C#Cc4ccc(C(=O)N[C@H]5C(C)(C)[C@H](Oc6ccc(C#N)c(Cl)c6)C5(C)C)cc4)CC3)CC2)c2ccc(-c3scnc3C)cc2)C(C)C)on1
G2/M arrest concentration (flow cytometry; 72 h): 1 µM

C[C@]12CC[C@@H]3c4ccc(OCC(=O)N[C@@H](CCCCNC(=O)CN5CCN(CC(=O)[O-])CCN(CC(=O)[O-])CCN(CC(=O)[O-])CC5)C(=O)O)cc4CC[C@H]3[C@@H]1CCC2=O.[Lu+3] [lutetium-177 labelled]
Kd (saturation binding; 60 min, room temperature): 14.4 ± 3.3 nM

CC(C)c1cnn2c(NCc3ccccc3)cc(N[C@@H](CO)[C@H](O)CO)nc12
RNA polymerase II Ser5 phosphorylation (immunofluorescence, item: phospho-Ser5 RNA polymerase II; 1 µM, 24 h): inhibited

N=C(N)NCCC[C@@H]1NC(=O)[C@H](CCCCN)NC(=O)[C@@H](Cc2ccc(O)cc2)NC(=O)[C@H](CC(=O)O)NC(=O)CNC1=O
TGI (MTT; 48 h): > 100000 nM

CC(Cc1ccc(Cl)cc1)=C(c1ccc(Cl)cc1)c1ccc(OCCN2CCOCC2)cc1
inhibition (cell growth or viability; 10 µM): 0.5%

NS(=O)(=O)c1ccc(/N=N/c2ccc(O)c(/C=N/c3cc(Cl)ccc3O)c2)cc1
selectivity index (MTT; 48 h; baseline: MCF10A IC50 over MCF7 IC50): 2.4

O=C1c2ccccc2C(=O)c2c1ccc1c2C(C(=O)Nc2ccc(Cl)cc2)C(=O)C1c1ccccc1 (centres unmarked)
TGI (cell growth or viability): 67200 nM

CN(C)c1ccc(/C=C/c2cc(/C=C3\Sc4ccccc4N3CCCN3CCCC3)c3ccccc3[n+]2C)cc1
CTCF mRNA level (qRT-PCR; concentration not given): no effect

CC(=C(c1ccc(Cl)cc1)c1ccc(OCCCN(C)C)cc1)c1ccc(Cl)cc1
inhibition (cell growth or viability; 10 µM): 65.7%

NS(=O)(=O)c1ccc(/N=N/c2ccc(O)c(C=O)c2)cc1
selectivity index (MTT; 72 h; baseline: MCF10A IC50 over MCF7 IC50): 3.47

COc1cc(/C=C/c2cc(C)n[nH]2)ccc1O
GSH/GSSG ratio increase (25 µM, 48 h; baseline: untreated): ~7 fold

COc1ccc(CC(C)=C(c2ccc(Cl)cc2)c2ccc(OCCN3CCCCC3)cc2)cc1
inhibition (cell growth or viability; 10 µM): 18.3%

O=C1c2c(O)cc(O)cc2-c2c(-c3ccc(O)cc3)oc3cc(O)cc1c23
unique downregulated proteins (label-free MS proteomics; baseline: tanespimycin): 70%

COc1ccc(/C=C/C(=O)c2ccc(NC(=O)c3ccccc3CN3C(=O)c4ccccc4C3=O)cc2)c(OC)c1
necrotic cells (annexin V/PI staining; IC50, 24 h; baseline: untreated): 2.76 fold

CCC[C@@H]1O[C@@H](Oc2c(-c3ccc(O)cc3)oc3cc(O)cc(O)c3c2=O)[C@H](OC(C)=O)[C@H](OC(C)=O)[C@H]1NC(C)=O
cyclin D1 level (inhibitor, immunoblot; 25 and 50 µM, with: PMA): no effect

CC(=O)[O][Pt]([Cl])([Cl])[O]C(C)=O.N.N
DNA-bound platinum (GF-AAS; 5 µM, 24 h; baseline: cellular platinum): 5%

N=C(N)NCCC[C@H](NC(=O)[C@H](Cc1c[nH]c2ccccc12)NC(=O)[C@H](CCC(N)=O)NC(=O)[C@H](Cc1c[nH]c2ccccc12)NC(=O)[C@@H](N)CCCNC(=N)N)C(=O)N[C@@H](Cc1c[nH]c2ccccc12)C(=O)N[C@@H](CCC(N)=O)C(=O)N[C@@H](Cc1c[nH]c2ccccc12)C(N)=O
selectivity ratio (baseline: erythrocyte IC50 over MCF7 IC50): > 2.6

CN(C)c1cccc2c(S(=O)(=O)NCCCCCC(=O)NO)cccc12
cells in G1 phase (cell cycle, propidium iodide flow cytometry; 1 µM): 75.8%

NS(=O)(=O)c1ccc(/N=N/c2ccc(O)c(/C=N/c3nccs3)c2)cc1
selectivity index (MTT; 72 h; baseline: MCF10A IC50 over MCF7 IC50): 1.92

CC(=O)OC[C@H]1O[C@@H](Sc2sc(C(=O)c3ccc(Br)cc3)c(N)c2-c2nc3ccccc3s2)[C@H](OC(C)=O)[C@@H](OC(C)=O)[C@@H]1OC(C)=O
growth (SRB; 10 µM, 48 h; baseline: untreated): 73.7%

NS(=O)(=O)c1ccc(/N=N/c2ccc(O)c(/C=N/c3cccc(O)c3)c2)cc1
selectivity index (MTT; 48 h; baseline: MCF10A IC50 over MCF7 IC50): 0.82

CN1CCN(c2ccc(C(=O)/C=C/Nc3ccc(S(N)(=O)=O)cc3)cc2)CC1
cells in %S phase (PI flow cytometry; IC50 concentration, 24 h): 25%

A few entries again:
CC(Cc1ccc(Cl)cc1)=C(c1ccc(Cl)cc1)c1ccc(OCCN2CCOCC2)cc1
inhibition (cell growth or viability; 10 µM): 0.5%

CN(C)c1ccc(/C=C/c2cc(/C=C3\Sc4ccccc4N3CCCN3CCCC3)c3ccccc3[n+]2C)cc1
CTCF mRNA level (qRT-PCR; concentration not given): no effect

COc1ccc(CC(C)=C(c2ccc(Cl)cc2)c2ccc(OCCN3CCCCC3)cc2)cc1
inhibition (cell growth or viability; 10 µM): 18.3%

O=C1c2c(O)cc(O)cc2-c2c(-c3ccc(O)cc3)oc3cc(O)cc1c23
unique downregulated proteins (label-free MS proteomics; baseline: tanespimycin): 70%
